Results from different studies.
Each numbered part is a random draw from the data of one study; scales do not carry over between parts. Changes are numbered by the printed parent chain.

Set 1
Target: Interferon regulatory factor 7, full length, phosphomimetic (IRF7, Homo sapiens, UniProt Q92985, residues 1-503, S471D/S472D/S475D/S476D/S477D/S483D/S484D/S487D)
Chain of UniProt Q92985 (whole entry, unmodified, looked up): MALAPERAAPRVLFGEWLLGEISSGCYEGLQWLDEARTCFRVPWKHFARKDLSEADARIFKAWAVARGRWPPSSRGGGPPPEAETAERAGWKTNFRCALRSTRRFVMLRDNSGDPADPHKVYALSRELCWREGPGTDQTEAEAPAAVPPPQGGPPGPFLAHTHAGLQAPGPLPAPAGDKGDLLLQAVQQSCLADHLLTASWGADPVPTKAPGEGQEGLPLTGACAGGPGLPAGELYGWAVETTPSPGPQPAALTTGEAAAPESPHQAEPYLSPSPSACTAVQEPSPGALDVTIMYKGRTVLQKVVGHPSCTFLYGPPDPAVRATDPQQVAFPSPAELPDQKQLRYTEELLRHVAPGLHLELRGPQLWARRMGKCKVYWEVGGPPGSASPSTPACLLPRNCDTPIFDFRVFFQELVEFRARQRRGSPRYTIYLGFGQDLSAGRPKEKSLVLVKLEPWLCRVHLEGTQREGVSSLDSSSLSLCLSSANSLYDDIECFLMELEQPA
Technique: protein-binding microarray
Molecule type: double-stranded DNA, one strand shown
Matrix: in vitro
Tested at: 2200 nM top
Notes: 60-bp whole probe
Added: salmon DNA 0.4 mg/ml
Baseline: random background probes
Reading: higher = stronger binding
All sequences stand within: GCCTAGCAC … GTCTTGATTCGCTTGACGCTGCTG
Oligonucleotide | fitted relative affinity
TTAGGACTGGACACTGCGTTAGTGCTA | -0.434 z-score
TTAGATATCGGGAATGGATTAGTGCTA | -0.387 z-score
GACGGTTGCGGGACTGGGGACGTGCTA | -0.588 z-score
TCATTTTAAAGTTTCAGACTGTGCTAG | 1.44 z-score
TTAGATTTCGGGTTTCGAGTAGTGCTA | 5.45 z-score
TTAGGACTGAACTATCGGTTAGTGCTA | -0.384 z-score
GACGGACTGGACGTTCGGGACGTGCTA | -0.544 z-score
TCATTTATATGCTATGTAACTGTGCTA | 1.05 z-score
TTAGATTTCAGTATCGAATAGTGCTAG | 0.451 z-score
TTAGGTATCGGGTTGCGGTTAGTGCTA | 1.45 z-score
GACGGACTGGGGACTCGGGACGTGCTA | -0.897 z-score
TTAGGTATGGGTCTCGGTTAGTGCTAG | 0.527 z-score

Set 2
Target: Histone acetyltransferase KAT6A, both winged helices, GST fusion (KAT6A, Homo sapiens, UniProt Q92794, residues 1-181)
Technique: protein binding microarray
Molecule type: double-stranded DNA, one strand shown
Matrix: in vitro
Tested at: not given
Notes: 8-mer, flanks averaged, mean of 2 arrays, mostly near background
Baseline: not given
Reading: higher = stronger binding
Target sequence (chain): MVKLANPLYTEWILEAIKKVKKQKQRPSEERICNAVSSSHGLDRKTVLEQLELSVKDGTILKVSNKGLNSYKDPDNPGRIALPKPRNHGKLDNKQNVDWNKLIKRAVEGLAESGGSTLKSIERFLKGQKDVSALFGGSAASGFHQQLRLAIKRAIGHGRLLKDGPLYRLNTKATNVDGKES
Oligonucleotide | E-score
AGAGCAAC | -0.149
CAAAATAG | -0.189
CCGGACGG | 0.272
AGCTCACC | -0.152
GAGTAACA | 0.0405
GAGACCAA | 0.00449
TAGACGCA | 0.102
CCTAGGGC | -0.117
ATAACTCG | 0.004
GCCAGTCC | 0.0399
GCGGACGC | 0.269
ACTTACAT | -0.1
GAACGGAA | 0.193
CGAAACAA | 0.0131
AGCAAGAT | -0.252
AGACTTGC | -0.088
CTGCGAGA | -0.0262
GTGAAGTA | -0.0702
GATGCACA | -0.025

Set 3
Target: CCND2, cyclin fold, Cln2 fusion (human)
Technique: yeast growth competition, sequencing
Matrix: yeast
Notes: weak parent motif
Baseline: not given
Reading: higher = stronger binding
Starting sequence: PKMYT1 docking peptide (human); SFEPRNLLSLFED
Variant | normalised enrichment score
SFEPANALSLFED [R5A L7A] | 0.1
SFEPRNLMSLFED [L8M] | 0.288
SFEPRNLPSLFED [L8P] | 0.0481
SFEPRNLLELFED [S9E] | 0.00211
SNEPRNLLSLFED [F2N] | -0.227
SFEPRNLLMLFED [S9M] | 0.115
SFEPRNLLNLFED [S9N] | 0.118
DFEPRNLLSLFED [S1D] | -0.0999
SFEPRNLLSLDED [F11D] | 0.188
IFEPRNLLSLFED [S1I] | -0.209
SFEPRNLLSRFED [L10R] | -0.177
SFEPRALLSLFED [N6A] | 0.445
SFYPRNLLSLFED [E3Y] | 0.547
SFEPRNLLSIFED [L10I] | 0.192
SFEPRNLLSLFES [D13S] | 0.235
SFEPRNLNSLFED [L8N] | 0.165
SFEPMNLLSLFED [R5M] | 0.308
SFEPRNMLSLFED [L7M] | -0.0758
STEPRNLLSLFED [F2T] | 0.469

Mixed results
Molecule | target | assay | system | conditions | scale | quantity | result
PhoQ, residues 284 288 289 292 302 303 SLANIV | PhoP, residues 12 14 15 18 19 VQALL (Escherichia coli, UniProt P23836) | Sort-seq, measured: YFP reporter | E. coli | PhoQ-PhoP variant library, added: 10 µM Mg2+ | baseline: high Mg2+ state, higher = stronger signaling | fold induction | 14.9

A few entries again (set 3):
Variant | normalised enrichment score
SFEPRALLSLFED [N6A] | 0.445
SFEPANALSLFED [R5A L7A] | 0.1
SFEPRNLMSLFED [L8M] | 0.288
SFEPRNLNSLFED [L8N] | 0.165
IFEPRNLLSLFED [S1I] | -0.209
SFEPRNLLSIFED [L10I] | 0.192
SFEPRNLLELFED [S9E] | 0.00211
SFEPRNLLSLFES [D13S] | 0.235
